# Experimental data collected from several papers.
# Numbered parts are unrelated; each lists some results of a single study. Positions count from the first letter of the parent shown.
# UniProt O15294, sequence (whole entry, looked up): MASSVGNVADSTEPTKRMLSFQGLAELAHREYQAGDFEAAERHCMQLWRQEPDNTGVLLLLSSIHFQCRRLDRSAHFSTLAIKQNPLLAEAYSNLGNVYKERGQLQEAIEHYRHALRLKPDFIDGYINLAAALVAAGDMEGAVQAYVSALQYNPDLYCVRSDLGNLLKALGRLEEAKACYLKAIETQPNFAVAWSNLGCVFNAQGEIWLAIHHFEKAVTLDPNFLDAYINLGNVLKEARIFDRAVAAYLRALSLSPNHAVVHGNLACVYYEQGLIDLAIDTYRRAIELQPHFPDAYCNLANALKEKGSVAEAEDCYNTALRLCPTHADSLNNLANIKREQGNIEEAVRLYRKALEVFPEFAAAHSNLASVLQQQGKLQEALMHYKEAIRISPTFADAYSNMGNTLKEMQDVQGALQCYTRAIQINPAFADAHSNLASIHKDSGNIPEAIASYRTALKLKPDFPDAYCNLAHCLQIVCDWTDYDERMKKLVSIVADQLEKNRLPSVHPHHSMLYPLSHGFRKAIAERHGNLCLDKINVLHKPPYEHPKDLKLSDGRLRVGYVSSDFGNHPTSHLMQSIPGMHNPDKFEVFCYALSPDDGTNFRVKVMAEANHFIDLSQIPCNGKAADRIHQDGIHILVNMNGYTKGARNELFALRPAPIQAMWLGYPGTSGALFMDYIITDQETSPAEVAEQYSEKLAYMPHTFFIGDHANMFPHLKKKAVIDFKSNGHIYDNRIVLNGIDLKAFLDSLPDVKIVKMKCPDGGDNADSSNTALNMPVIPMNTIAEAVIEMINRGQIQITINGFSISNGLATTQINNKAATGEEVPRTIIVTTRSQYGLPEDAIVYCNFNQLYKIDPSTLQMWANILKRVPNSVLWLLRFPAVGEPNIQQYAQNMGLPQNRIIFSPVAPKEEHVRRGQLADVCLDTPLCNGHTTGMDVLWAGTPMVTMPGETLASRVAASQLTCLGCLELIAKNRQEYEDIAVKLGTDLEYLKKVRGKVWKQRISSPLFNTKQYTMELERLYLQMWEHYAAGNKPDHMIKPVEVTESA

# Series 1 — target: CCNE2, cyclin fold, Cln2 fusion (human); method: yeast growth competition, sequencing; matrix: yeast; setting: strong parent motif; relative to: not given; direction: higher = stronger binding; starting sequence: viral docking peptide; KGVKRKLFAEDSS
Change,normalised enrichment score
K4C,6.43
S12E,6.7
V3N,0.532

# Series 2 — method: RNAcompete; molecule type: RNA; matrix: in vitro; concentration: 20 nM; setting: 7-mer, probes averaged, single round; relative to: mean of 7-mers; direction: higher = stronger binding
# Target: PABPC1L2, full length, GST fusion (mouse, UniProt A0ABA7IW68)
# Construct (chain): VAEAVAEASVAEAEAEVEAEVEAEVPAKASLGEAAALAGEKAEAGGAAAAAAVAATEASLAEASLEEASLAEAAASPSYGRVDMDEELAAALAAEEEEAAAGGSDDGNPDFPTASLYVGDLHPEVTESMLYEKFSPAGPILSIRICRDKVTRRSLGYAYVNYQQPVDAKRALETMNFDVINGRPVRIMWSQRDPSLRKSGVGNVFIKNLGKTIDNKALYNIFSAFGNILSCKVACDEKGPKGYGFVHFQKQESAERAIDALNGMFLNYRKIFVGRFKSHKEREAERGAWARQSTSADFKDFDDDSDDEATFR
Strand,7-mer Z-score
UCAUCCC,-0.432
AUUUCCU,-0.318
AGCAGCA,-0.0174
GAGCAUU,-0.0881
CCCGGAA,-0.113
UCUCGCA,-0.237
CCUUCUA,-0.409
GCAUUAC,-0.0373

# Series 3 — method: RNA Bind-n-Seq; molecule type: RNA; matrix: in vitro; concentration: 365 nM; relative to: no-protein control; direction: higher = stronger binding
# Target: RNA binding protein fox-1 homolog 2, RRM domain, GST-SBP tag (RBFOX2, Homo sapiens, UniProt O43251-10, residues 100-194)
# Setting: natural RNA segment, single round, ends assumed
# Shared flanks, not repeated: GGGAGUUCUACAGUCCGACGAUC … UGGAAUUCUCGGGUGCCAA
# Target sequence (chain): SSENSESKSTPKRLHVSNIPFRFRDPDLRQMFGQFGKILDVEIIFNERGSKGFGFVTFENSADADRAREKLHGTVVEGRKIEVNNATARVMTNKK
Strand,RBNS enrichment (R)
AAAAGAGUGCUAUGAUGUUCUUAGCAUUUGCUAUCAUGCCUAUUUUUAUCUAGAUUUUUAAAUGUAGCUUGUCAUAACAAAAUUUUAAUUACAAUUGGCUUGUAUGAGAA,4.52
GCUUCUCGCCCCUCAGUGGUUUCCUCGGCCCUCCUGGGUUUACUCCUUGAGUUUUCCUGCUGCGAUGCAAUGCUUUUCUAAUCUGCAGUGGCUCUUACAAAACUCUGUUC,0.559
AUUUAAAAAAACAACAACAACAUUUUUUCAACAAUUUCAACAAUGACACAAAAAUUCACAUGGAAAUGGGGAAGAUGGUCUGUUUUGACAGAAACUGACAGGAAUCAAUC,0.364
UCACGUUCUGGUAUUUCUGAGGUUAACACUUGAUUUAGCCCCUACAUAUCUUUCCAUAUAUCCUAUUAUUUCUGAAUAUAUGUCCUCAAAAUCCCCAUAAAUAUCCAUCC,0.526
UUCAUUCAAUCCUGAGAGGCCAAUUAGUCUUUAUAAGGCCCAGAUCCUUGUAGUCCAGGUGAUCAGUGGCCAACAACUCCCCAAAGUGGAUAAAACCAAAGAGACAACCG,0.307
GAAUCUGCAACCUGAUUGAUUAUAUAAAAAUACAUGCAAAUAACAAGAUUUUCUUACCUCUCAGUUGUUGAAACACUUUGCUUCUUAAAAUUGAUAUGUUGAAACUUUAA,0.417
CGUGACUGUUUUAAAACACCAUAAUGAAUGUAUAAUUAAUUUAUGUUCAAGUAUUAAUAUUGUUACAAGGGAAAAGUAAUAUUAGGAUUGUUUGCUCUCCUGUCUGCCCC,0.731
UACAAAUAAAUACCAUAACAGUUACUUGGUUAGACAUCAAAUCUGUGUGCAUGACUAUGUGCUUAUCCACUUAAGACAAUAGGUAAAAGGGGAUCUGAGAAAUUAUGUAA,5.94

# Further values, each from its own experiment
Sequence,target,observed,method,molecule type,relative to,endpoint,value
VVQQEYRPRYQISFK,"UDP-N-acetylglucosamine--peptide N-acetylglucosaminyltransferase 110 kDa subunit (OGT, Homo sapiens, UniProt O15294)",binding,phage display NGS,peptide,input library,minimum log2 enrichment ratio,2.03

# For quick reference, copied from above (series 2):
Strand,7-mer Z-score
AGCAGCA,-0.0174
GAGCAUU,-0.0881
CCCGGAA,-0.113
